Experimental data of several laboratories.
Protocols differ between the studies behind these lines. “And” joins repeats or separate records; there may be more than shown. Numbers after ± are the reported error.

| SMILES | assay | test system | conditions | scale | quantity | value |
| --- | --- | --- | --- | --- | --- | --- |
| COc1cc2c3c(n(CCCN4CCOCC4)c(=O)c2cc1OC)-c1cc2c(cc1C3=O)OCO2 |  | beagle dog, female, plasma | intravenous infusion, 646 mg/m^2, 1 h infusion |  | Cmax | 2010 ng/mL |
| C=CC(=O)NC1CCN(c2ncc3ncnc(Nc4ccc(Oc5ccc6c(c5)ncn6C)c(C)c4)c3n2)CC1 |  | healthy male humans | oral, 240 mg |  | participants with any TEAE | 68.8% |
| COc1cc(N2CCC3(CCN(C)CC3)CC2)ccc1Nc1ncc(Cl)c(Nc2ccccc2P(C)(C)=O)n1 | population PK model | human | oral, bootstrap median |  | Q/F | 15.5 L/h |
| Cc1ccc(O)c(-n2nc3ccccc3n2)c1 | exposure assessment | human, age 1-2 years | sunscreen |  | mean daily dermal uptake | 1390 ng/kg body weight/day |
| COCCOc1cnc2ccn([C@H](C)c3nnc4c(F)cc(-c5cnn(C)c5)cn34)c(=O)c2c1 |  | patients, plasma | oral, 50 mg once daily, day 1 24 h postdose |  | Ctrough | 0.04 µg/mL |
| Cc1ccc(Sc2ccccc2N2CCNCC2)c(C)c1 |  | healthy adult men | oral, 40 mg single dose, treatment-emergent adverse events |  | vomiting incidence | 33.3% |
| COc1cccc(-c2n[nH]c(SCc3ccccn3)n2)c1OC |  | Sprague-Dawley rat, plasma | oral, 10 mg/kg | baseline: female over male | Cmax ratio | 0.46 |
| COC(=O)[C@@H]1[C@H]2C[C@H]3c4[nH]c5ccccc5c4CCN3C[C@@H]2CC[C@@H]1O |  | rat, thoracic spinal cord | intraperitoneal, 1 mg/kg, 1.5 h, added: tizanidine |  | concentration | 300 nM |
| CNC(=O)c1cc(Oc2ccc(NC(=O)Nc3cc(C(C)(C)C)nn3-c3ccc4ncccc4c3)c(F)c2)ccn1 | refers to: worst grade 1 | human | oral, dose not given, cycles 1 and 2, Low AUC(0-4 h) subgroup |  | patients with nervous system disorder AE | 13% |
| C[C@@H]1O[C@@H](O[C@H]2[C@H](Oc3cc(O)c4c(c3)O[C@H](c3ccc(O)cc3)CC4=O)O[C@H](CO)[C@@H](O)[C@@H]2O)[C@H](O)[C@H](O)[C@H]1O |  | PBS receiver | 50 mg/mL, 120 min, pH 6.8 |  | Papp | 0.557 ± 0.8 ×10⁻⁶ cm/s |
| Cc1cc(Nc2cc3ncccc3c(N[C@@H]3C[C@H]4CC[C@@H](C3)N4CCC#N)n2)n[nH]1 |  | healthy human subjects | oral, 300 mg, 14 days, multiple ascending dose |  | papular rash incidence | 17% |
| COc1ccc2c(=O)n(C)c(-c3ccccc3)nc2c1 |  | Sprague-Dawley rat, lung | oral, 30 mg/kg, 4 h |  | tissue concentration | not detected |
| CCN1/C(=C/C(C)=O)Sc2ccc(F)cc21 |  | cynomolgus monkey | oral, 10 mg/kg, 0.5 h post-dose | baseline: pre-dose | PR interval change | 100 ± 8.7% |
| COc1ccc(C(O)COc2ccc(-c3csc(-c4ccc(OCC(O)c5ccc(OC)c(OC)c5)cc4)n3)cc2)cc1OC (centres unmarked) |  | C57BL/6J mice, plasma | oral, 75 mg/kg | baseline: 75 mg/kg over 10 mg/kg | AUC(0-inf) ratio | 7.3 |
| O=C(N[C@H](Cc1c[nH]c2ccccc12)C(=O)Nc1ccncc1)c1ccc(-c2cc(C(F)(F)F)ccc2F)cc1F |  | Swiss Webster mouse, female, intestine | oral, 50 mg/kg, 2 h, 20% HPβCD vehicle |  | concentration | 90 nM |
| Cc1c2oc3c(C)ccc(C(=O)N[C@@H]4C(=O)N[C@H](C(C)C)C(=O)N5CCC[C@H]5C(=O)N(C)CC(=O)N(C)[C@@H](C(C)C)C(=O)O[C@@H]4C)c3nc-2c(C(=O)N[C@@H]2C(=O)N[C@H](C(C)C)C(=O)N3CCC[C@H]3C(=O)N(C)CC(=O)N(C)[C@@H](C(C)C)C(=O)O[C@@H]2C)c(N)c1=O | LC-MS | children with cancer, plasma | dose not given, 22 h |  | maximum plasma concentration | 4 µg/L |
| COCCc1ccc(OCC(O)CNC(C)C)cc1 (centres unmarked) |  | n-hexane/tris buffer partitioning | pH 9, hydrochloride salt |  | pKa | 9.82 ± 0.01 |
| CCN1CCN(Cc2ccc(NC(=O)c3ccc(C)c(NC(=O)c4cncc(-c5cccs5)c4)c3)cc2C(F)(F)F)CC1 |  | C57BL/6 mouse, plasma | intraperitoneal, 10 mg/kg, single dose |  | Vz/F | 24 L/kg |
| O=C(Nc1nc2cccc(-c3ccc(CN4CCS(=O)(=O)CC4)cc3)n2n1)C1CC1 | refers to: vomiting | rheumatoid arthritis patients | oral, 300 mg once daily, 4 weeks, any relatedness |  | treatment-emergent adverse events | 0% |
| COc1cc2[nH]c(C)c(-c3ccco3)c(=O)c2cc1Cl |  | PAMPA | pH 7.4 |  | Papp | < 5 ×10⁻⁶ cm/s |
| C=CC(=O)N1CCC[C@@H](n2nc(-c3ccc(Oc4ccccc4)cc3)c3c(N)ncnc32)C1 |  |  |  |  | tapped density | 0.61 g/mL |
| COc1ccc(C[C@@H](C)[C@@H](C)Cc2ccc(OC)c(OC)c2)cc1OC |  | beagle dog female, plasma | oral, 100 mg/kg/day, day 1 |  | Cmax | 1730 ± 150 ng/mL |
| CN(C(=O)n1cnc(-c2ccc[n+]([O-])c2)c1)[C@H]1CC[C@H](O)CC1 |  | cynomolgus monkeys, plasma | oral, 1.0 mg/kg |  | AUC(0-t) | 67.3 ng·h/mL |
| Cc1cc(-c2nccc3c2ccn3CC(=O)Nc2ccc(-c3cnccn3)cn2)ccn1 |  | healthy human volunteers | oral, 20 mg single dose, single ascending dose |  | upper abdominal pain incidence | 0% |

| SMILES | assay | test system | conditions | scale | quantity | value |
| --- | --- | --- | --- | --- | --- | --- |
| CCc1cc2ncc(CN3CCN(c4ccc(C(=O)NC)nc4)CC3)cc2[nH]c1=O |  | male rat, blood | oral, 25 mg/kg/day, 4 weeks | baseline: vehicle control | white blood cell count ratio | 0.64 |
| COC(=O)/C(C#N)=C1\Nc2ccccc2O1 |  | sheep erythrocytes | 1 h, pH 7.5 |  | maximum haemolysis | 3.17% |
| Cc1c(C(=O)Nc2ccc(N3C[C@@H](C)O[C@@H](C)C3)nc2)cccc1-c1ccc(OC(F)(F)F)cc1 | PK model | mouse | oral, 40 mg/kg/day |  | central volume of distribution | 46.2 mL |
| O=C(O)CCC(=O)O.[2H]C([2H])([2H])Oc1cc(C)c2[nH]ccc2c1CN1CC[C@@H](C2CC2)C[C@H]1c1ccc(C(=O)O)cc1 |  | human, plasma | 300 mg once daily, day 10, multiple ascending dose |  | CLss/F | 2.66 L/h |
| C[C@@H](Nc1cc(F)cc(F)c1)c1cc(C(=O)N(C)C)cc2c(=O)cc(N3CCOCC3)oc12 | refers to: M1 metabolite | human | oral, 120 mg, single dose day 1, 5:2 BID regimen |  | AUC(0-12 h) | 3550 ng·h/mL |
| Cc1ccc([C@@H]2O[C@H](CO)[C@@H](O)[C@H](O)[C@H]2O)cc1Cc1ccc(-c2ccc(F)cc2)s1 |  | Japanese type 2 diabetes patients | 100 mg, day 5, 24 h urine collection | baseline: baseline | urinary magnesium excretion change | 14.5 mg |
| NC[C@@H]1O[C@H](O[C@H]2[C@@H](O)[C@H](O[C@@H]3[C@@H](O)[C@H](N)C[C@H](N)[C@H]3O[C@H]3O[C@H](CO)[C@@H](O)[C@H](O)[C@H]3N)O[C@@H]2CO)[C@H](N)[C@@H](O)[C@@H]1O |  | NSG mice | dose not given, day 3 of treatment |  | body weight | 23.4 g and 22.3 g and 22.9 g and 20.7 g and 23.8 g and 21.2 g |
| CNC(=O)c1ccc(-c2cnc3ncc(Cc4ccc5ncccc5c4)n3n2)cc1F | refers to: Fatigue, all grades | gastric cancer patients | oral, 600 mg twice daily, expansion cohort, any causality |  | patients with adverse event | 56% |
| CNC(=O)c1ccc(-c2cnc3ncc(Cc4ccc5ncccc5c4)n3n2)cc1F |  | Japanese patients | oral, 400 mg, grade 3/4 |  | Vomiting dose reduction/interruption | 0% |
| COc1ccc([C@@H](O)c2cc(-c3ncnc4cc(N5CCOCC5)ccc34)c(F)cc2Cl)nn1 |  | locally advanced rectal cancer patients | 150 mg, added: capecitabine and radiotherapy |  | constipation TEAE incidence | 50% |
| Cc1noc(C)c1Cn1cc(N2C(=O)CN(Cc3cccc(O)c3)C2=O)cn1 |  | pooled human liver microsomes | 50 µM, 10 min, pH 7.4 |  | remaining parent | 104 % peak area |
| Cc1cc(-c2nnc(N)nc2-c2ccc(F)cc2)cc(Cl)n1 | refers to: rash | IO-naive other solid tumour patients | oral, 100 mg once daily, treatment-related, grade 2 |  | patients with immune-mediated AE | 0% |
| FC(F)(F)c1ccc(CNc2ccc(Cc3c[nH]c4ncc(Cl)cc34)cn2)cn1 | refers to: blood alkaline phosphatase increased | patients with advanced solid tumours | oral, dose not given, phase Ib, related to compound |  | adverse events, all grades | 17% |
| C[Si](C)(C)O[Si](C)(C)C |  | 1-octanol/water | 7-48 µg/L in water, 20.0 °C |  | log KOW | 5.06 |
| O=C(CCCN1CC=C(n2c(=O)[nH]c3ccccc32)CC1)c1ccc(F)cc1 |  | male Hartley guinea pigs, anaesthetized | intravenous, 0.1 mg/kg over 10 min, after infusion |  | mean blood pressure | 31 ± 0.2 mmHg |
| COCc1cc(C(=O)Nc2cc([C@H]3CC[C@@H](OC(=O)NC(C)C)C3)[nH]n2)n(C)n1 |  | OVCAR-3 xenograft, NOD/SCID gamma mice, plasma | oral, 125 twice daily, PK/PD study |  | unbound C24h | 141 nM |
| CC[C@H](C)[C@H](NC(=O)CN)C(=O)N[C@@H](C)C(=O)N[C@@H](CC(=O)O)C(=O)N[C@@H](C)C(=O)N[C@H](C(=O)N[C@@H](CCCCN)C(=O)N[C@@H](CCCCN)C(=O)N[C@H](C(=O)N[C@@H](C)C(=O)N[C@@H](CCCCN)C(=O)N[C@@H](C)C(=O)N[C@@H](CC(C)C)C(=O)NCC(N)=O)[C@@H](C)CC)[C@@H](C)CC | circular dichroism at 222 nm | 10 mM SDS | 100 µM, pH 4.0 |  | mean residue ellipticity | -17100 deg cm2/dmol |
| CCNC(=O)c1ncccc1O |  |  |  |  | pKa (basic) | 2.5 |
| Cc1cc(C)c(CNC(=O)c2cc(Cl)c3c(c2C)O[C@@](C)([C@H]2CC[C@H](N(C)C)CC2)O3)c(=O)[nH]1 | CTCAE v4.0, refers to: platelet count decreased | human relapsed/refractory NHL | oral, 200 mg once daily, onset after cycle 1 day 1, overall treatment period |  | patients with TEAE | 41.7% |
| Cc1c(-c2ccc(N3CCc4cccc(C(=O)Nc5nc6ccccc6s5)c4C3)nc2C(=O)O)cnn1CC12CC3(C)CC(C)(C1)CC(OCCNCC[C@H](O)CO)(C3)C2 |  | beagle dog, male, anaesthetised | intravenous infusion, 0.3 mg/kg/min, 120 min | baseline: vehicle | QTcV interval change | 15 ms |
| C[C@@H]1COCCN1c1cc(C2([S@](C)(=N)=O)CC2)nc(-c2cc[nH]c3nccc2-3)n1 |  | Japanese advanced solid tumour patients | oral, 240 mg twice daily, CTCAE grade ≥3 |  | Constipation incidence | 0% |
| Cc1cc(NC(=O)c2cccc(NC(=O)/C=C/CN(C)C)c2)ccc1Nc1nccc(-c2cccnc2)n1 |  | rat Wistar male, plasma | 1 µM, 15 min |  | remaining compound | 95.3% and 97.3% |
| COc1ncc(-c2nc3c(n2C(C)C)[C@H](c2ccc(Cl)cc2)N(c2cc(Cl)cn(C)c2=O)C3=O)c(OC)n1 |  | human patients, plasma | oral, 1 mg, low-dose arm, cycle 1 day 8 |  | median Tmax | 4 h |

For quick reference, copied from above:
| SMILES | assay | test system | conditions | scale | quantity | value |
| --- | --- | --- | --- | --- | --- | --- |
| COC(=O)/C(C#N)=C1\Nc2ccccc2O1 |  | sheep erythrocytes | 1 h, pH 7.5 |  | maximum haemolysis | 3.17% |
| Cc1cc(-c2nccc3c2ccn3CC(=O)Nc2ccc(-c3cnccn3)cn2)ccn1 |  | healthy human volunteers | oral, 20 mg single dose, single ascending dose |  | upper abdominal pain incidence | 0% |
| CC[C@H](C)[C@H](NC(=O)CN)C(=O)N[C@@H](C)C(=O)N[C@@H](CC(=O)O)C(=O)N[C@@H](C)C(=O)N[C@H](C(=O)N[C@@H](CCCCN)C(=O)N[C@@H](CCCCN)C(=O)N[C@H](C(=O)N[C@@H](C)C(=O)N[C@@H](CCCCN)C(=O)N[C@@H](C)C(=O)N[C@@H](CC(C)C)C(=O)NCC(N)=O)[C@@H](C)CC)[C@@H](C)CC | circular dichroism at 222 nm | 10 mM SDS | 100 µM, pH 4.0 |  | mean residue ellipticity | -17100 deg cm2/dmol |
| CNC(=O)c1ccc(-c2cnc3ncc(Cc4ccc5ncccc5c4)n3n2)cc1F | refers to: Fatigue, all grades | gastric cancer patients | oral, 600 mg twice daily, expansion cohort, any causality |  | patients with adverse event | 56% |
| Cc1cc(NC(=O)c2cccc(NC(=O)/C=C/CN(C)C)c2)ccc1Nc1nccc(-c2cccnc2)n1 |  | rat Wistar male, plasma | 1 µM, 15 min |  | remaining compound | 95.3% and 97.3% |
| CCc1cc2ncc(CN3CCN(c4ccc(C(=O)NC)nc4)CC3)cc2[nH]c1=O |  | male rat, blood | oral, 25 mg/kg/day, 4 weeks | baseline: vehicle control | white blood cell count ratio | 0.64 |
| COc1ncc(-c2nc3c(n2C(C)C)[C@H](c2ccc(Cl)cc2)N(c2cc(Cl)cn(C)c2=O)C3=O)c(OC)n1 |  | human patients, plasma | oral, 1 mg, low-dose arm, cycle 1 day 8 |  | median Tmax | 4 h |
